Assay results gathered from unrelated publications.
Each line is one published result; not all experiments were run side by side. “And” joins repeats or separate records; there may be more than shown. Numbers after ± are the reported error. ≈ marks a conversion by molar mass, not a printed value.

C[C@H](NC(=O)[C@H](CCCNC(=N)N)NC(=O)[C@H](Cc1c[nH]c2ccccc12)NC(=O)[C@H](CCCNC(=N)N)NC(=O)[C@H](Cc1c[nH]c2ccccc12)NC(=O)[C@H](Cc1c[nH]c2ccccc12)NC(=O)[C@H](Cc1c[nH]c2ccccc12)NC(=O)[C@H](CCCNC(=N)N)NC(=O)[C@H](Cc1c[nH]c2ccccc12)NC(=O)[C@H](CCCNC(=N)N)NC(=O)CN)C(N)=O
minimal haemolytic concentration (mouse red blood cells): 64 µM

CNC(=O)C[C@H](Cc1ccc(F)cc1)NC(=O)[C@@H](Cc1ccc(Cl)cc1Cl)NC(=O)[C@H](N)Cc1ccccc1C#N
viability (Huh-7-ACE2; CellTiter-Glo; 6.25 µM, 48 h, unit not given; relative to: DMSO): 0.936 and 0.91 and 0.838

Cc1ccc(N(C)CCN2CCOCC2)cc1C(=O)N[C@H](C)c1cc(-c2cnn(C)c2)nc2ccccc12
viability (Vero E6; 15.62 µM): 92.1% and 91.7% and 90.8%

C[C@@H]1COCCN1c1nc(NCc2cccnc2C(F)(F)F)c2cccnc2n1
IC50 (THP-1 cells; cytotoxicity): > 250 µM

CNC(=O)C[C@H](Cc1ccccc1)NC(=O)[C@@H](Cc1ccc(Cl)cc1Cl)NC(=O)[C@H](N)Cc1ccccc1C#N
viability (Huh-7-ACE2; CellTiter-Glo; 0.000381 µM, 48 h, unit not given; relative to: DMSO): 0.913 and 0.998 and 0.996

CCCCCC1=C(NCC)C(=O)C(C/C=C(\C)CCC=C(C)C)=C(O)C1=O
cytostasis (human peripheral blood lymphocytes; 20 µg/mL, 24 h, without S9): 52%

O=c1n(CCNCCOS(=O)(=O)c2ccccc2)c(=O)n(S(=O)(=O)c2ccccc2)c(=O)n1S(=O)(=O)c1ccccc1
viability (HUVEC; cell growth or viability, MTT; 50 µg/mL, 48 h): 26.7%

O=C(C=Cc1ccc(O)c(O)c1)OC1CC(O)(C(=O)O)CC(OC(=O)C=Cc2ccc(O)c(O)c2)C1O (centres unmarked)
cytotoxicity (Vero E6; 6.25 µM): 0%

Cc1ccc(OCCN(C)C)cc1C(=O)N[C@H](C)c1cc(-c2ccn(C)n2)nc2ccccc12
viability (Vero E6; 31.25 µM): 81.8% and 93.7% and 96.2%

CC1CCC(C(C)(C)C(=O)Nc2ccc(Oc3ccccc3)cc2)CC1 (centres unmarked)
IC50 (CHO; cell growth or viability; 72 h): > 100 µM

N=C(N)NCCC[C@H](NC(=O)CN)C(=O)N[C@@H](Cc1c[nH]c2ccccc12)C(=O)N[C@@H](CCCNC(=N)N)C(=O)N[C@@H](Cc1c[nH]c2ccccc12)C(=O)N[C@@H](Cc1c[nH]c2ccccc12)C(=O)N[C@@H](Cc1c[nH]c2ccccc12)C(=O)N[C@@H](CCCNC(=N)N)C(=O)N[C@@H](Cc1c[nH]c2ccccc12)C(=O)N[C@@H](CCCNC(=N)N)C(=O)N[C@@H](Cc1ccccc1)C(N)=O
minimal haemolytic concentration (mouse red blood cells): 16 µM

O=C(CCCCCOc1ccc2ccccc2c1)N[C@@H](CO)C[C@@H](O)c1ccc(-c2ccccc2)cc1
living cells (HeLa; 1 µM, lipidomics treatment): 93% and 87% and 97%

CNC(=O)C[C@H](Cc1ccc(F)cc1)NC(=O)[C@@H](Cc1ccc(Cl)cc1Cl)NC(=O)[C@H](N)Cc1ccccc1[N+](=O)[O-]
viability (Huh-7-ACE2; CellTiter-Glo; 0.000763 µM, 48 h, unit not given; relative to: DMSO): 0.982 and 1.05 and 0.955

CCn1ccc(-c2cc([C@@H](C)NC(=O)c3cc(N4CC5CCC(C4)N5C)ccc3C)c3ccccc3n2)n1
viability (Vero E6; 250 µM): 0% and -0.142% and -0.427%

CN(C)CCCNC(=O)[C@@H]1NC(=O)[C@@H]2Cc3ccc(cc3)Oc3cc4cc(c3O)-c3ccc5c(c[nH]c5c3)C[C@@H](NC(=O)C(NC(=O)CCCCCN)c3ccc(O)cc3)C(=O)N[C@H](c3ccc(O)cc3)C(=O)N[C@H]4C(=O)N[C@@H](C(=O)N2C)c2ccc(cc2)Oc2cc1ccc2O (some centres unmarked)
hemolysis (human red blood cells; PBS; 1 µg/mL, 1 h, pH 7.4, 37 °C): 0.95% and 0%

NC(=O)c1cc(-c2ccsc2)ccc1OCCc1cc(F)cc(F)c1
selectivity ratio (HepG2; 3 (unit not given); relative to: CC50 glucose over CC50 galactose): < 1

Cc1ccc(N2CCN(C)C3(CC3)C2)cc1C(=O)N[C@H](C)c1cc(-c2cnn(C)c2)nc2ccccc12
viability (Vero E6; 31.25 µM): 89.2% and 84.8% and 85.6%

Cn1ccc([C@H](CO)Nc2nc(N3C[C@@H]4C[C@H]3CO4)c3cc(-c4ccccc4)oc3n2)n1
Papp (RRCK (MDCK)): 37.8 ± 5.5 ×10⁻⁶ cm/s

Cc1ccc(N2CCC3(CC2)CN(C)C3)cc1C(=O)N[C@H](C)c1cc(-c2cnn(C)c2)nc2ccccc12
viability (Vero E6; 31.25 µM): 94.1% and 89.3% and 94.3%

O=C(O)c1cccc(CP(=O)(O)O)n1
EC50 (H4IIE; lysosome integrity, neutral red uptake; 24 h, without 10% FBS): 200 ± 10 µg/mL (≈ 921 µM)

CC(C)C[C@H](N)C(=O)N[C@@H](Cc1c[nH]c2ccccc12)C(=O)N[C@@H](CCCNC(=N)N)C(=O)N[C@@H](CCCNC(=N)N)C(=O)N[C@@H](Cc1c[nH]c2ccccc12)C(=O)N[C@@H](CCCNC(=N)N)C(=O)N[C@@H](Cc1c[nH]c2ccccc12)C(=O)N[C@@H](Cc1c[nH]c2ccccc12)C(=O)N[C@@H](Cc1c[nH]c2ccccc12)C(=O)O
lowest cytotoxic concentration (HEK-293T cells; CCK-8; 4 h, 37 °C, 10% cell death): 128 µg/mL

C#CCOc1ccc(CN[C@@]2(C)C[C@H](O[C@H]3[C@H](Oc4c5cc6cc4Oc4ccc(cc4Cl)[C@@H](O)[C@@H](NC(=O)[C@@H](CC(C)C)NC)C(=O)N[C@@H](CC(N)=O)C(=O)N[C@H]6C(=O)N[C@H]4C(=O)N[C@H](C(=O)N[C@H](C(=O)N[C@@H](CCCNC(=N)N)C(N)=O)c6cc(O)cc(O)c6-c6cc4ccc6O)[C@H](O)c4ccc(c(Cl)c4)O5)O[C@H](CO)[C@@H](O)[C@@H]3O)O[C@@H](C)[C@H]2O)cc1OC
hemolysis (sheep erythrocytes; 512 µg/mL, 37 °C; relative to: Triton X-100): < 5%

CC(=O)N[C@@H](CCCCN)C(=O)N1CCC[C@H]1C(=O)N[C@H](C(=O)N[C@@H](Cc1ccccc1)C(=O)N[C@@H](CCC(N)=O)C(=O)N[C@@H](Cc1ccccc1)C(=O)N[C@@H](CC(C)C)C(=O)N[C@@H](Cc1ccccc1)C(=O)N[C@@H](Cc1c[nH]cn1)C(=O)N[C@@H](CCC(=O)O)C(N)=O)C(C)C
hemolysis (mouse red blood cells; 2500 µM, 1 h, 37 °C; relative to: Triton X-100): 0.2%

Cc1ccc(N(C)C2CN(C)C2)cc1C(=O)N[C@H](C)c1cc(-c2cnn(C)c2)nc2ccccc12
viability (Vero E6; 125 µM): 15.9% and 14.9% and 22.6%

C#Cc1ccc(N2CCOCC2)c(/C=N/NC(=O)CCl)c1
IC50 (MDA-MB-231; cell growth or viability, ATP luminescence; 24 h): 5.8 µM

Cc1ccc(N2CC(N(C)C)C2)cc1C(=O)N[C@H](C)c1cc(-c2cnn(C)c2)nc2ccccc12
viability (Vero E6; 15.62 µM): 91.5% and 94.5% and 92.3%

N=C(N)NCCC[C@H](NC(=O)[C@H](Cc1c[nH]c2ccccc12)NC(=O)[C@H](CCCNC(=N)N)NC(=O)[C@H](Cc1c[nH]c2ccccc12)NC(=O)[C@H](Cc1c[nH]c2ccccc12)NC(=O)[C@H](Cc1c[nH]c2ccccc12)NC(=O)[C@H](CCCNC(=N)N)NC(=O)[C@H](Cc1c[nH]c2ccccc12)NC(=O)[C@@H](N)CCCNC(=N)N)C(=O)N[C@@H](Cc1ccccc1)C(N)=O
minimal haemolytic concentration (mouse red blood cells): 32 µM

O=C1C=CC(=O)c2c(O)cccc21
IC50 (MRC-5; cytotoxicity, MTT; 48 h, 10% FBS): 26.2 ± 0.53 µM

CC(C)[C@H](NC(=O)[C@H](CCCNC(=N)N)NC(=O)[C@H](Cc1c[nH]c2ccccc12)NC(=O)[C@H](CCCNC(=N)N)NC(=O)[C@H](Cc1c[nH]c2ccccc12)NC(=O)[C@H](Cc1c[nH]c2ccccc12)NC(=O)[C@H](Cc1c[nH]c2ccccc12)NC(=O)[C@H](CCCNC(=N)N)NC(=O)[C@H](Cc1c[nH]c2ccccc12)NC(=O)[C@@H](N)CCCNC(=N)N)C(N)=O
minimal haemolytic concentration (mouse red blood cells): 64 µM

CNC(=O)CC1CN(C(=O)c2ccc(C(F)(F)F)cn2)CCN1C(=O)c1cccnn1 (centres unmarked)
viability (Huh-7-ACE2; CellTiter-Glo; 0.195 µM, 48 h, unit not given; relative to: DMSO): 1.07 and 1.12 and 1.19

CC[C@H](C)[C@H](NC(=O)[C@H](CCCNC(=N)N)NC(=O)[C@H](Cc1c[nH]c2ccccc12)NC(=O)[C@H](CCCNC(=N)N)NC(=O)[C@H](Cc1c[nH]c2ccccc12)NC(=O)[C@H](Cc1c[nH]c2ccccc12)NC(=O)[C@H](Cc1c[nH]c2ccccc12)NC(=O)[C@H](CCCNC(=N)N)NC(=O)[C@H](Cc1c[nH]c2ccccc12)NC(=O)[C@@H](N)CCCNC(=N)N)C(N)=O
minimal haemolytic concentration (mouse red blood cells): 32 µM

Cc1ccc(OCC2CN(C)C2)cc1C(=O)N[C@H](C)c1cc(-c2cnn(C)c2)nc2ccccc12
viability (Vero E6; 7.812 µM): 95.5% and 93.6% and 96.4%

Excerpt of the above:
CC(C)[C@H](NC(=O)[C@H](CCCNC(=N)N)NC(=O)[C@H](Cc1c[nH]c2ccccc12)NC(=O)[C@H](CCCNC(=N)N)NC(=O)[C@H](Cc1c[nH]c2ccccc12)NC(=O)[C@H](Cc1c[nH]c2ccccc12)NC(=O)[C@H](Cc1c[nH]c2ccccc12)NC(=O)[C@H](CCCNC(=N)N)NC(=O)[C@H](Cc1c[nH]c2ccccc12)NC(=O)[C@@H](N)CCCNC(=N)N)C(N)=O
minimal haemolytic concentration (mouse red blood cells): 64 µM

N=C(N)NCCC[C@H](NC(=O)[C@H](Cc1c[nH]c2ccccc12)NC(=O)[C@H](CCCNC(=N)N)NC(=O)[C@H](Cc1c[nH]c2ccccc12)NC(=O)[C@H](Cc1c[nH]c2ccccc12)NC(=O)[C@H](Cc1c[nH]c2ccccc12)NC(=O)[C@H](CCCNC(=N)N)NC(=O)[C@H](Cc1c[nH]c2ccccc12)NC(=O)[C@@H](N)CCCNC(=N)N)C(=O)N[C@@H](Cc1ccccc1)C(N)=O
minimal haemolytic concentration (mouse red blood cells): 32 µM

O=C1C=CC(=O)c2c(O)cccc21
IC50 (MRC-5; cytotoxicity, MTT; 48 h, 10% FBS): 26.2 ± 0.53 µM
